Results from different studies.
Every numbered part comes from another study and shows a few of its results, in no order.

Series 1
Target: Max dimerization protein 1, bHLH-zipper, MAX partner unstated (MXD1, Homo sapiens, UniProt Q05195, residues 56-136)
Method: protein-binding microarray
Molecule type: double-stranded DNA, one strand shown
Matrix: in vitro
Concentration: not given
Setting: k-mer, scored over probes, only values ≥0.25
Reading: higher = stronger binding
Measurement: E-score
Construct (chain): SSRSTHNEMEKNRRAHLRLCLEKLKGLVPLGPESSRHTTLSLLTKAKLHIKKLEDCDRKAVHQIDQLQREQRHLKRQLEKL
CATGCTTC: 0.419
CCTCCCCG: 0.319
CGTGGTAG: 0.282
CGGTGCAC: 0.281
GCGTGTAC: 0.383
CGTGCCGC: 0.268
ACATGTAC: 0.324

Series 2
Target: RNA binding protein fox-1 homolog 2, RRM domain, GST-SBP tag (RBFOX2, Homo sapiens, UniProt O43251-10, residues 100-194)
Method: RNA Bind-n-Seq
Molecule type: RNA
Matrix: in vitro
Concentration: 365 nM
Setting: natural RNA segment, single round, ends assumed
Reference: no-protein control
Reading: higher = stronger binding
Measurement: RBNS enrichment (R)
Residues (chain): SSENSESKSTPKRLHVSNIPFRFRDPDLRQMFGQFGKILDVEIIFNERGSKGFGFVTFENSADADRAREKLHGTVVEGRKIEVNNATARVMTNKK
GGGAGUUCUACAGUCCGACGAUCUGUGUUCUCUAAUCAAUAGUGGUUUAGCUUUCUUUUCUAUUUCACUCGUUUCUAGGGUUUUUUAUUUGCAGUUUAGGAACUAUUAGGAAUGUCAGGACUUUAUCAGCAGGUGGAAUUCUCGGGUGCCAA: 1.83
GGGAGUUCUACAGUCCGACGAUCGACCUCUCGAAAGUCUCUGUGGGGGCAUGAGGGAGAAAAGGCCAUUGGGAGAAUUACUGCCUUUACUUUGGGACUACUUUUAUGCUGAUAACUUGGGAUUUCUUGAUAGUUGGAAUUCUCGGGUGCCAA: 0.614
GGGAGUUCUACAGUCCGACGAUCCCGCUGCCAAGGGGGGGAUUGCUCACUUCACGUGCAGUUUGUCCAGUUACUCAGCCCUUUUUAUUUCCUUGUUUGAGAGGUAUGCAACCUUGCCUUUACCCAAACUUUGUUGGAAUUCUCGGGUGCCAA: 1.91
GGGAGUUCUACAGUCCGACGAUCACCUGGCUGAUUUUUGUAAUUUUAGUAGAGACGGGGUUUCACCAUGUUGGCCAGGCUGAUUAACUCCUGACCUCAGGUGAUCCACCUUUCUCGGCCUCCCAAAGUGCUGGUGGAAUUCUCGGGUGCCAA: 0.287
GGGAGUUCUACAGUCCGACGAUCGUAGAAUUCUGUGCUCCCCGUGACACUUAGUACAUUAAGAAUGACUACACUGUUCCUCGUAUGUGAAGGAGGCAGUGCUGACUCCGUGAGUGUGAGACACGUGCUUUGAAUGGAAUUCUCGGGUGCCAA: 1.29

Series 3
Target: Histone acetyltransferase KAT6A, winged helix 1, GST fusion (KAT6A, Homo sapiens, UniProt Q92794, residues 1-85)
Method: protein binding microarray
Molecule type: double-stranded DNA, one strand shown
Matrix: in vitro
Concentration: not given
Setting: 8-mer, flanks averaged, mean of 2 arrays, mostly near background
Reference: not given
Reading: higher = stronger binding
Measurement: E-score
Target sequence (chain): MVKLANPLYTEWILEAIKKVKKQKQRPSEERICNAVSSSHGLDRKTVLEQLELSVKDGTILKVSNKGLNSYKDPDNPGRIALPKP
GAGGAGGC: 0.00951
AGGTGATC: -0.238
CAGTTGCC: 0.106
GAAAAGGC: 0.0788
ACTCCTGC: -0.182
CTAAGTCA: -0.149

Single results of other studies
PhoQ, residues 284 288 289 292 302 303 TGYLSA  fold induction (PhoP, residues 12 14 15 18 19 SMASL (Escherichia coli, UniProt P23836); Sort-seq, item: YFP reporter; E. coli; PhoQ-PhoP variant library, with: 10 µM Mg2+; reference: high Mg2+ state, higher = stronger signaling): 2.95

For quick reference, copied from above (series 3):
CAGTTGCC: 0.106
AGGTGATC: -0.238
